Assay results from different studies.
Several values in a cell are separate wells, animals, samples, runs or records. Numbers after ± are the reported error.
C3AR1: C3a anaphylatoxin chemotactic receptor (C3AR1, Homo sapiens, UniProt Q16581)
Sequence of UniProt Q16581 (whole entry, looked up): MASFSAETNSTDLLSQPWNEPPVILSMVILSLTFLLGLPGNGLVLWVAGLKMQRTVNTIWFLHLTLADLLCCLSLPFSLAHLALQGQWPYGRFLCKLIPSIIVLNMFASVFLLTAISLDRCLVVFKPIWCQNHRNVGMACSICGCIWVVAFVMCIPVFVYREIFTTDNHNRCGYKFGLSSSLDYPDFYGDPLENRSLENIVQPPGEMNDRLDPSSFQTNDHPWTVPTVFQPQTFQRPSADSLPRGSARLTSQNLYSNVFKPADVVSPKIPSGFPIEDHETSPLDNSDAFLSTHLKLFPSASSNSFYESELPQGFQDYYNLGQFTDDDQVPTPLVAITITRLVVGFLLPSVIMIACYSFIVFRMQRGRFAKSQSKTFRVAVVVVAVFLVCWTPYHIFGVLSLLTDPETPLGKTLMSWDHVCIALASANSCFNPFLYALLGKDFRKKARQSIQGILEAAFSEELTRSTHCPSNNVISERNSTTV
ADORA1: Adenosine receptor A1 (ADORA1, Homo sapiens, UniProt P30542)
Sequence of UniProt P30542 (whole entry, looked up): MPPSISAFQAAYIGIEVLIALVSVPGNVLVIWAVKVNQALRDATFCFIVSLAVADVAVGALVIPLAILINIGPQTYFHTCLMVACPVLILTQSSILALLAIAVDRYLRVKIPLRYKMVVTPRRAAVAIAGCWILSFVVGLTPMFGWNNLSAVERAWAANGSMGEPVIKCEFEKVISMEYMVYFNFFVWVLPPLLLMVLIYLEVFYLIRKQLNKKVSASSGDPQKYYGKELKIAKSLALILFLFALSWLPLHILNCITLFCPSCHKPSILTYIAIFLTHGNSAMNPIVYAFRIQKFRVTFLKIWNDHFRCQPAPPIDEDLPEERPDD
ESR1: Estrogen receptor (ESR1, Homo sapiens, UniProt P03372)
Sequence of UniProt P03372 (whole entry, looked up): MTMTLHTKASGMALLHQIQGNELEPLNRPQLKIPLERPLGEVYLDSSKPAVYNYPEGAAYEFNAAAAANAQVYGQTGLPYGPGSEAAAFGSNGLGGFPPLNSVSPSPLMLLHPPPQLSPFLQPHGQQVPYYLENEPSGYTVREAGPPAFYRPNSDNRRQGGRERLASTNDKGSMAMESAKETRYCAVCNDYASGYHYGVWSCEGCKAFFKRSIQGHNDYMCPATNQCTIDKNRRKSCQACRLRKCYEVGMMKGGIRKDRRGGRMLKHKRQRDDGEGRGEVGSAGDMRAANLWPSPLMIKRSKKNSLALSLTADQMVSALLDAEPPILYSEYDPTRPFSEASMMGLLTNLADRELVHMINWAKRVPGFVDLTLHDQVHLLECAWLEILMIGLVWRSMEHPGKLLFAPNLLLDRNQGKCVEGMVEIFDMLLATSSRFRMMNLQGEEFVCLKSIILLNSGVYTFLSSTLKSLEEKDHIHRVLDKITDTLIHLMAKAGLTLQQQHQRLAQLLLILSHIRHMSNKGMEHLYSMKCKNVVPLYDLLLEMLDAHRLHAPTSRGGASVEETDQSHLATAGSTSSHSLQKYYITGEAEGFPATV
ESR2: Estrogen receptor beta (ESR2, Homo sapiens, UniProt Q92731)
Sequence of UniProt Q92731 (whole entry, looked up): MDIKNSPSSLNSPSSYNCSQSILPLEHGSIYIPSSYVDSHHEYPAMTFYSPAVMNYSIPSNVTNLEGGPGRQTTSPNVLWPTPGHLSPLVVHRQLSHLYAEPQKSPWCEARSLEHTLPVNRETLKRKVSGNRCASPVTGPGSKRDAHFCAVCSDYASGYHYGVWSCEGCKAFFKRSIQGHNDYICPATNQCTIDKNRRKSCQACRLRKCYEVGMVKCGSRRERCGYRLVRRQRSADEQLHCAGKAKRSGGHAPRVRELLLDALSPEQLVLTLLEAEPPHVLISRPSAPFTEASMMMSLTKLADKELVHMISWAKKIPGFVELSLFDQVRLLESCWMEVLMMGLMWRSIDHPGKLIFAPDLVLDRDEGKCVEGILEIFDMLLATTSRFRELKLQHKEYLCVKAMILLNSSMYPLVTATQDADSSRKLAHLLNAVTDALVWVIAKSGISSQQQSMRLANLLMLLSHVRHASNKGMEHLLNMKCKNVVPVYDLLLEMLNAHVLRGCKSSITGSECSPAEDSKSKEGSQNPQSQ
RXRA: Retinoic acid receptor RXR-alpha (RXRA, Homo sapiens, UniProt P19793)
Sequence of UniProt P19793 (whole entry, looked up): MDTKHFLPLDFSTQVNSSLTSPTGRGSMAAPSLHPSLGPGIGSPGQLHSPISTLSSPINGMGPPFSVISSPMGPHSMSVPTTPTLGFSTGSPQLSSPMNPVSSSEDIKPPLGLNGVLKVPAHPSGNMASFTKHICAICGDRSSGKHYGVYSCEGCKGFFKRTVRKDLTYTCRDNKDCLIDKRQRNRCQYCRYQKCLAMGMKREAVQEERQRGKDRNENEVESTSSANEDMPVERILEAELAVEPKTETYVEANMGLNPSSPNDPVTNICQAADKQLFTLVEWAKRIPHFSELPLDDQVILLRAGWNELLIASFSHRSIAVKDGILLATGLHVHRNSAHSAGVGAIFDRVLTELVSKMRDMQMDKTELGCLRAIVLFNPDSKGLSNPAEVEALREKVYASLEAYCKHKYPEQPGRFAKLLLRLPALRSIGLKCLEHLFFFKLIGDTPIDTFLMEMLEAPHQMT
MTNR1A: Melatonin receptor type 1A (MTNR1A, Homo sapiens, UniProt P48039)
Sequence of UniProt Q61143 (whole entry, unmodified, looked up): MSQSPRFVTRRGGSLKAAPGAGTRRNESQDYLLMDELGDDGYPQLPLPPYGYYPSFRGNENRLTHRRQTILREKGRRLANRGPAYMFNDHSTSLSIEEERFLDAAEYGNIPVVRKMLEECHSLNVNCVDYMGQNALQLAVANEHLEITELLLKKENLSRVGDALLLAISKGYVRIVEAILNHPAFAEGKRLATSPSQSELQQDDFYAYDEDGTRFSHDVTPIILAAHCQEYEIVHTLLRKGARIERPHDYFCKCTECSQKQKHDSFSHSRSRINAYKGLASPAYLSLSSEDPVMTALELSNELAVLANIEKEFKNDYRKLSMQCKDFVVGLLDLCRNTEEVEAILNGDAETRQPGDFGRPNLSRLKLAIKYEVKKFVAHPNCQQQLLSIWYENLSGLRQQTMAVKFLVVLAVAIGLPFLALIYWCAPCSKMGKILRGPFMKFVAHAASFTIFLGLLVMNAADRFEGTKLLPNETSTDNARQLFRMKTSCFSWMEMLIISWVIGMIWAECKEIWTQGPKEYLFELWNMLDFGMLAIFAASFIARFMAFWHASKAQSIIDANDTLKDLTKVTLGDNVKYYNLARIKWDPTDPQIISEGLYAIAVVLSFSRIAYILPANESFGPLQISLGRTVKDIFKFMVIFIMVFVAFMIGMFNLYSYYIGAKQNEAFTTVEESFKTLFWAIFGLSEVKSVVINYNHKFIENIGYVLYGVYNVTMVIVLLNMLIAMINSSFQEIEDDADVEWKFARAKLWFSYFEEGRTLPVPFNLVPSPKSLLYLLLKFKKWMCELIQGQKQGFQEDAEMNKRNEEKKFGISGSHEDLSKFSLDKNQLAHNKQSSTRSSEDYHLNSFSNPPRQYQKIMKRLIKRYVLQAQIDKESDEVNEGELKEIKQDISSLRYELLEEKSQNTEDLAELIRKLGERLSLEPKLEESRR
Sequence of UniProt P48039 (whole entry, looked up): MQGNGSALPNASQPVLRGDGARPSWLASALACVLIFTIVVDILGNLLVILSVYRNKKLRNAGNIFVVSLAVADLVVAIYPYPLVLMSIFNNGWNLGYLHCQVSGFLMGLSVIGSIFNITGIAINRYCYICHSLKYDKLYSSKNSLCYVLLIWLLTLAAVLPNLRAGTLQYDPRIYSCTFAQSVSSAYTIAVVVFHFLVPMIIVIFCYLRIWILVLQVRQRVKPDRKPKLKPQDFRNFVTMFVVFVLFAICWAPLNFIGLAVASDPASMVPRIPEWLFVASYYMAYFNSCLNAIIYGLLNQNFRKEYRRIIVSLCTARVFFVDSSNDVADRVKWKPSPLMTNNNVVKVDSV
Sequence of UniProt P41968 (whole entry, unmodified, looked up): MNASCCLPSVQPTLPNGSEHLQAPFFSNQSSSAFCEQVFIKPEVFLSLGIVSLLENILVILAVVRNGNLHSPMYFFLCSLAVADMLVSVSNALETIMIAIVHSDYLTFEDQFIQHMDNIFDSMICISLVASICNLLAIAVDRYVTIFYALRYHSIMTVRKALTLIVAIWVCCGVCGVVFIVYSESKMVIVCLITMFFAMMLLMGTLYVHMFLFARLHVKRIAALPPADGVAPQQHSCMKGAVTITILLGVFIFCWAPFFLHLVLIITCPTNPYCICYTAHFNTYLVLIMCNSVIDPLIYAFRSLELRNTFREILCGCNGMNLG
Sequence of UniProt Q01726 (whole entry, looked up): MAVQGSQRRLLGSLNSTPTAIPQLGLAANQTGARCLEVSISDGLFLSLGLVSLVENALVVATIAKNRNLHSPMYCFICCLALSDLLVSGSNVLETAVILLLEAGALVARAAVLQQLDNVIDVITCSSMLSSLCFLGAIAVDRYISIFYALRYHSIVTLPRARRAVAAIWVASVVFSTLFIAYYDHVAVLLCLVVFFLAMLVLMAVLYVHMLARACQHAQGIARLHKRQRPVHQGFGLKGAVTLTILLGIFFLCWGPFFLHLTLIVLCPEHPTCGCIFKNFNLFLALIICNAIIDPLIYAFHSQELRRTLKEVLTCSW
Sequence of UniProt P50241 (whole entry, looked up): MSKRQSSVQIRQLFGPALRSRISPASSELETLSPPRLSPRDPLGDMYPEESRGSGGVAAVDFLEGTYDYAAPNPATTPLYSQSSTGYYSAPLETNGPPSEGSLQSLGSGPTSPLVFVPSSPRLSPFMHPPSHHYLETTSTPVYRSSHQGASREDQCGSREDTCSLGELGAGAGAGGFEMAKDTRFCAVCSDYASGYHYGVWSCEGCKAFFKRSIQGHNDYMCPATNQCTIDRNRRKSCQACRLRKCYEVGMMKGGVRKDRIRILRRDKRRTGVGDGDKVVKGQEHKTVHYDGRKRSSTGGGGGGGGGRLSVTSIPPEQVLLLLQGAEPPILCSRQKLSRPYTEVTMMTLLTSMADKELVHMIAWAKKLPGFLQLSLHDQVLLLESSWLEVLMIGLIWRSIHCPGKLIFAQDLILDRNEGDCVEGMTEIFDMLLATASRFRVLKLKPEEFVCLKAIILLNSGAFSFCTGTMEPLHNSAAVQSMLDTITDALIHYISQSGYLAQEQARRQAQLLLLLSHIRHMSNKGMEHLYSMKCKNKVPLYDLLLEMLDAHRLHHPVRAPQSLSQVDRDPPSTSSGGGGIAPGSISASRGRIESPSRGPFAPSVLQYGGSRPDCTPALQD

| Compound | target or system | assay | system | setting | how to read | endpoint | result |
| --- | --- | --- | --- | --- | --- | --- | --- |
| CC(C)C[C@H](NC(=O)CNC(=O)[C@H](CC(C)C)NC(=O)[C@H](CCCCN)NC(=O)[C@H](CO)NC(=O)[C@H](C)NC(=O)[C@H](CCCN=C(N)N)NC(=O)[C@H](Cc1ccc(O)cc1)NC(=O)[C@H](CCCCN)NC(=O)[C@H](CCCCN)NC(=O)CNC(=O)[C@H](Cc1c[nH]c2ccccc12)NC(=O)[C@@H](N)Cc1c[nH]c2ccccc12)C(=O)N[C@@H](C)C(=O)N[C@@H](CCCN=C(N)N)C(=O)O | C3AR1 | β-arrestin recruitment, agonist, luciferase | – | – | – | EC50 | 300 to 500 nM |
| CCCC[C@H](NC(=O)[C@H](CO)NC(=O)[C@H](Cc1ccc(O)cc1)NC(=O)[C@H](CO)NC(C)=O)C(=O)N[C@@H](CCC(=O)O)C(=O)N[C@@H](Cc1c[nH]cn1)C(=O)N[C@H](Cc1ccccc1)C(=O)N[C@@H](CCCNC(=N)N)C(=O)N[C@@H](Cc1c[nH]c2ccccc12)C(=O)NCC(=O)N[C@@H](CCCCN)C(=O)N1CCC[C@H]1C(=O)N[C@H](C(=O)NCC(=O)N[C@@H](CCCCN)C(=O)N[C@@H](CCCCN)C(=O)N[C@@H](CCCNC(=N)N)C(N)=O)C(C)C | MC3R (Homo sapiens, UniProt P41968, L128M) | cAMP production, agonist | – | mutant receptor | – | EC50 | 3.7 ± 0.1 nM |
| O=C(c1cc2c(s1)CCCCC2)N1CCC(n2c(=O)[nH]c3ccccc32)CC1 | Trpc6 (Mus musculus, UniProt Q61143, Y704W) | channel activation, agonist, whole-cell patch clamp | – | – | – | EC50 | 2930 ± 740 nM |
| N=C(N)NCCC[C@H](NC(=O)[C@H](CC(=O)O)NC(=O)[C@@H]1CSCC(=O)NCC(=O)N[C@@H](Cc2c[nH]cn2)C(=O)N[C@H](Cc2ccccc2)C(=O)N[C@@H](CCCNC(=N)N)C(=O)N[C@@H](Cc2c[nH]c3ccccc23)C(=O)N1)C(=O)N[C@@H](Cc1ccccc1)C(=O)NCC(N)=O | MC1R (Homo sapiens, UniProt Q01726) | cAMP, agonist | – | – | – | EC50 | > 1000 nM |
| CSCC[C@H](NC(=O)CNC(=O)[C@H](CCCCN)NC(=O)[C@@H](N)Cc1c[nH]c2ccccc12)C(=O)N[C@H](C(=O)N[C@H](CCSC)C(N)=O)C(C)C | FPR1 (Homo sapiens, UniProt P21462) | binding, competitor | U-937 | 4 °C, with: 5 nM WK(FL)YMVm | – | EC50 | > 6700 nM |
| O=C(O)CN(CC(=O)O)[C@@H](CCCCNC(=O)CCCC(=O)NCCOCCOCCOCCOCCC(=O)NCCCNCC(O)c1cccc(O)c1)C(=O)O (stereo partly shown) | ADRB2 (Homo sapiens, UniProt P07550) | cAMP, agonist, ELISA | – | – | – | EC50 | 160 nM |
| CCNC(=O)[C@H]1O[C@@H](n2cnc3c(NCCCNC(=O)CCCCCNC(=O)COc4ccc(/C=C/C5=[N+]6C(=Cc7ccc(-c8cccs8)n7[B-]6(F)F)C=C5)cc4)ncnc32)[C@H](O)[C@@H]1O | ADORA1 | CRE-SPAP reporter gene, agonist | CHO-A1 | Gs enhancement, with: forskolin | – | EC50 | 661 nM |
| O=S(=O)(Oc1cccc(Br)c1)C1CC2OC1C(c1ccc(O)cc1)=C2c1ccc(O)cc1 (racemic) | ESR1 | reporter gene, agonist, luciferase | – | – | – | EC50 | 300 nM |
| CC(C)C[C@H](NC(=O)CNC(=O)[C@H](CC(C)C)NC(=O)[C@H](CCCCN)NC(=O)[C@H](CO)NC(=O)[C@H](C)NC(=O)[C@H](CCCN=C(N)N)NC(=O)[C@H](Cc1ccc(O)cc1)NC(=O)[C@H](CCCCN)NC(=O)[C@H](CCCCN)NC(=O)CNC(=O)[C@H](Cc1c[nH]c2ccccc12)NC(=O)[C@@H](N)Cc1c[nH]c2ccccc12)C(=O)N[C@@H](C)C(=O)N[C@@H](CCCN=C(N)N)C(=O)O | C3AR1 | receptor internalization, agonist, ELISA surface expression | HEK293T, β-arrestin2, GRK2 co-expressed | 60 min, 37 °C | – | EC50 | 46 nM |
| N=C(N)NCCC[C@H](NC(=O)[C@H](CC(=O)O)NC(=O)[C@@H]1CSCCCC(=O)NCC(=O)N[C@@H](Cc2c[nH]cn2)C(=O)N[C@H](Cc2ccccc2)C(=O)N[C@@H](CCCNC(=N)N)C(=O)N[C@@H](Cc2c[nH]c3ccccc23)C(=O)N1)C(=O)N[C@@H](Cc1ccccc1)C(=O)NCC(N)=O | MC3R (Homo sapiens, UniProt P41968) | cAMP, agonist | – | – | – | EC50 | 100 nM |
| COc1cc(/C=C2\Cc3ccccc3C2=O)ccc1O | ESR2 | coactivator recruitment, agonist | – | – | – | EC50 | 630 nM |
| CC(C)C[C@H](NC(=O)[C@@H](N)[C@@H](C)O)C(=O)N[C@@H](CCC(N)=O)C(=O)N1CCC[C@H]1C(=O)N1CCC[C@H]1C(=O)N[C@@H](C)C(=O)N[C@@H](CO)C(=O)N[C@@H](CO)C(=O)N[C@@H](CCCNC(=N)N)C(=O)N[C@@H](CCCNC(=N)N)C(=O)N[C@@H](CCCNC(=N)N)C(=O)N[C@@H](Cc1c[nH]cn1)C(=O)N[C@@H](Cc1ccccc1)C(=O)N[C@@H](Cc1c[nH]cn1)C(=O)N[C@@H](Cc1c[nH]cn1)C(=O)N[C@@H](C)C(=O)N[C@@H](CC(C)C)C(=O)N1CCC[C@H]1C(=O)N1CCC[C@H]1C(=O)N[C@@H](C)C(=O)N[C@@H](CCCNC(=N)N)C(=O)O | C3AR1 | β-arrestin2 recruitment, agonist, BRET | – | 60 min, 37 °C, with: GRK2 co-expression | – | EC50 | 542 nM |
| COc1cc(-c2cnc3nc2NCCCNS(=O)(=O)c2cccc(c2)N3)ccc1F | FLT1 (Homo sapiens, UniProt P17948) | target engagement in cells, BRET | – | – | – | EC50 | 13000 nM |
| CCCn1c(=O)c2[nH]c(-c3ccc(OCC(=O)NCCNC(=O)CCCCCCCNS(=O)(=O)c4cccc5c(N(C)C)cccc45)cc3)nc2n(CCC)c1=O | ADORA1 | reporter gene, agonist | – | – | – | EC50 | 30.2 nM |
| O=C1/C(=C\c2cccc(F)c2)Oc2cc(O)ccc21 | ESR2 | coactivator recruitment, agonist | – | – | – | EC50 | 910 nM |
| O=Cc1c(O)ccc2ccccc12 | HUVEC | RNA sequencing, refers to: TMEM45B | – | 75 µM, 24 h | reference: DMSO | log2 fold change | 2.67 |
| COc1ccc(C2=NOC(CN3CCC(N4CCCC4=O)c4ccccc43)C2)cc1OC (stereo not shown) | ABCG2 (Homo sapiens, UniProt Q9UNQ0) | ATPase activity, activator | – | 20 min, pH 6.8, cell membranes | – | EC50 | 170 nM |
| O=C1NC(=O)C(c2ccccc2)(c2ccccc2)N1 | Estrogen receptor (esr1, Oryzias latipes, UniProt P50241) | receptor activation, agonist | – | – | – | EC50 | > 100000 nM |
| O=C1C[C@H](c2nc(-c3ccc(F)c4cn[nH]c34)no2)CCCN1c1ccc(F)cc1 (racemic) | CNR2 (Homo sapiens, UniProt P34972) | cAMP, agonist, luciferase | – | – | – | EC50 | 26.5 nM |
| C=CCc1cccc(-c2cc(/C=C/C(=O)O)ccc2O)c1 | RXRA | coactivator recruitment, agonist, FP | – | – | – | EC50 | 260 nM |
| CC/C(=C(\c1ccccc1)c1ccc(OCCN(C)CCCCC(=O)NCCc2c[nH]c3ccc(OC)cc23)cc1)c1ccccc1 | MTNR1A | cAMP, agonist | – | – | – | EC50 | 2510 nM |
| CC(C)C[C@@H]1NC(=O)[C@H](CCCNC(=N)N)NC(=O)[C@H](C(C)C)NC(=O)[C@H](Cc2c[nH]cn2)NC(=O)[C@H](Cc2c[nH]cn2)NC(=O)CNC(=O)[C@H](CCCCN)NC(=O)[C@H](CC(C)C)NC(=O)[C@H](CC(N)=O)NC(=O)[C@H]([C@@H](C)O)NC(=O)[C@H](CO)NC(=O)[C@H](CC(N)=O)NC(=O)[C@@H]2CCCN2C(=O)[C@H](CO)NC(=O)[C@@H]2CCCN2C(=O)[C@H](C(C)C)NC(=O)[C@H](CCCNC(=N)N)NC(=O)[C@H](Cc2c[nH]cn2)NC(=O)[C@@H]2CSSC[C@H](NC1=O)C(=O)N[C@@H](CCCCN)C(=O)N1CCC[C@H]1C(=O)N[C@H](C(=O)N[C@@H](CCCCN)C(=O)N[C@@H](CC(C)C)C(=O)N[C@@H](CCC(=O)O)C(=O)N1CCC[C@H]1C(=O)N[C@@H](CCC(=O)O)C(=O)N1CCC[C@H]1C(=O)N[C@@H](CCCNC(=N)N)C(=O)N[C@@H](CC(C)C)C(=O)N[C@@H](Cc1c[nH]c3ccccc13)C(=O)N[C@H](C(=O)N[C@H](C(=O)N1CCC[C@H]1C(=O)NCC(=O)N[C@@H](C)C(=O)N[C@@H](CC(C)C)C(=O)N1CCC[C@H]1C(=O)N[C@@H](CCC(N)=O)C(=O)N[C@H](C(=O)O)C(C)C)C(C)C)C(C)C)CSSC[C@H](NC(=O)[C@H](CC(C)C)NC(=O)[C@H](CCCNC(=N)N)NC(=O)[C@@H](NC(=O)[C@H](CCCNC(=N)N)NC(=O)[C@H](CCCNC(=N)N)NC(=O)CNC(=O)[C@H](CO)NC(=O)[C@H](Cc1c[nH]c3ccccc13)NC(=O)[C@H](C)NC(=O)[C@H](CCCCN)NC(=O)[C@H](C)NC(=O)[C@@H]1CCCN1C(=O)[C@H](CCCNC(=N)N)NC(=O)[C@H](CCCNC(=N)N)NC(=O)[C@@H](N)CCCCN)[C@@H](C)O)C(=O)N2 | G-protein coupled receptor 15, with Gi3 (Homo sapiens, UniProt P49685) | Gi3 activation, agonist, BRET | HEK293A transfected GPR15 | – | – | EC50 | 20.4 nM |
| COc1ccc(OC)c2sc(N(CCN(C)C)C(=O)c3ccc4ccccc4c3)nc12 | Trpc6 (Mus musculus, UniProt Q61143) | calcium signal, agonist, fluorescence | – | – | – | EC50 | ~70800 nM and 70800 nM |
| O=S(=O)(Oc1ccccc1F)C1CC2OC1C(c1ccc(O)cc1)=C2c1ccc(O)cc1 (racemic) | ESR1 | reporter gene, agonist, luciferase | – | – | – | EC50 | 26 nM |
| CCN1C(=O)/C(=C\c2ccc(O)cc2)SC1=S | ESR1 | coactivator recruitment, agonist | – | – | – | EC50 | 330 nM |
| C=C(c1ncc(C(=O)O)cn1)c1cc2c(cc1C)C(C)(C)CCC2(C)C | RXRA | reporter gene, agonist, mammalian two-hybrid | HCT-116, transfected | 24 h | – | EC50 | 44 nM |
| CCNC(=O)[C@H]1O[C@@H](n2cnc3c(NCCCCNC(=O)CCCCCCCNS(=O)(=O)c4cccc5c(N(C)C)cccc45)ncnc32)[C@H](O)[C@@H]1O | ADORA1 | reporter gene, agonist | – | – | – | EC50 | > 1000 nM |
| CC/C(=C(\c1ccccc1)c1ccc(OCCN(C)CCCCCC(=O)NCCc2c[nH]c3ccc(OC)cc23)cc1)c1ccccc1 | MTNR1A | phosphorylation in cells, agonist, AlphaScreen | – | – | – | EC50 | 807 nM |

A few entries again:
| Compound | target or system | assay | system | setting | how to read | endpoint | result |
| --- | --- | --- | --- | --- | --- | --- | --- |
| O=S(=O)(Oc1ccccc1F)C1CC2OC1C(c1ccc(O)cc1)=C2c1ccc(O)cc1 (racemic) | ESR1 | reporter gene, agonist, luciferase | – | – | – | EC50 | 26 nM |
